Experimental data pooled from the literature.
Each numbered part is a random draw from the data of one study; scales do not carry over between parts. Several values in a cell are separate wells, animals, samples, runs or records.
UniProt P10721, sequence (whole entry, unmodified, looked up): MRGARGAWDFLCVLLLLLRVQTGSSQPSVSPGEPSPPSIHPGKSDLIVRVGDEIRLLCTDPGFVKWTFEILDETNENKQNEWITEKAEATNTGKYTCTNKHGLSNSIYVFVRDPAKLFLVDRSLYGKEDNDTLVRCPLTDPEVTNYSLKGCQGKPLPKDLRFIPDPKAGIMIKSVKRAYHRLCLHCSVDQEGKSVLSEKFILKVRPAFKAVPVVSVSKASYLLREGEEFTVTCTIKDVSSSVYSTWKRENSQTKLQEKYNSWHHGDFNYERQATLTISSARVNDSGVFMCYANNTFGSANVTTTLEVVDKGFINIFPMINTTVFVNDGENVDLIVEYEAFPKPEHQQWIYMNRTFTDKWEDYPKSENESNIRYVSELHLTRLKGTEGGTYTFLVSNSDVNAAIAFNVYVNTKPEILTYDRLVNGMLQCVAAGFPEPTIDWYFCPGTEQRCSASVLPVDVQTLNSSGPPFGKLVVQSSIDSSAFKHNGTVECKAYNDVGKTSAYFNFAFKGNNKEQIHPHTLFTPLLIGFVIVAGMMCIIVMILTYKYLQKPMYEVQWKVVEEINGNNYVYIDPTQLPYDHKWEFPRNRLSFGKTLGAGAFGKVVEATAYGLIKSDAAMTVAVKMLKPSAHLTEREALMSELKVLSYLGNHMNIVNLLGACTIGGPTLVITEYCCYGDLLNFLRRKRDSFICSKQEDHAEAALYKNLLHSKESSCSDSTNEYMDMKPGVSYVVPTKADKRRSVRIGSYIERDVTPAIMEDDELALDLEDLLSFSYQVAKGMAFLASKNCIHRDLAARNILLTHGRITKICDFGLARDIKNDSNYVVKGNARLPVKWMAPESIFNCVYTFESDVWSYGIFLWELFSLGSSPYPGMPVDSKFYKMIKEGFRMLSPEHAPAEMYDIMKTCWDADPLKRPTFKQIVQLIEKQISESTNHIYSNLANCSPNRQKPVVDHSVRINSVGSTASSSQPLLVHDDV
UniProt O00444, sequence (whole entry, looked up): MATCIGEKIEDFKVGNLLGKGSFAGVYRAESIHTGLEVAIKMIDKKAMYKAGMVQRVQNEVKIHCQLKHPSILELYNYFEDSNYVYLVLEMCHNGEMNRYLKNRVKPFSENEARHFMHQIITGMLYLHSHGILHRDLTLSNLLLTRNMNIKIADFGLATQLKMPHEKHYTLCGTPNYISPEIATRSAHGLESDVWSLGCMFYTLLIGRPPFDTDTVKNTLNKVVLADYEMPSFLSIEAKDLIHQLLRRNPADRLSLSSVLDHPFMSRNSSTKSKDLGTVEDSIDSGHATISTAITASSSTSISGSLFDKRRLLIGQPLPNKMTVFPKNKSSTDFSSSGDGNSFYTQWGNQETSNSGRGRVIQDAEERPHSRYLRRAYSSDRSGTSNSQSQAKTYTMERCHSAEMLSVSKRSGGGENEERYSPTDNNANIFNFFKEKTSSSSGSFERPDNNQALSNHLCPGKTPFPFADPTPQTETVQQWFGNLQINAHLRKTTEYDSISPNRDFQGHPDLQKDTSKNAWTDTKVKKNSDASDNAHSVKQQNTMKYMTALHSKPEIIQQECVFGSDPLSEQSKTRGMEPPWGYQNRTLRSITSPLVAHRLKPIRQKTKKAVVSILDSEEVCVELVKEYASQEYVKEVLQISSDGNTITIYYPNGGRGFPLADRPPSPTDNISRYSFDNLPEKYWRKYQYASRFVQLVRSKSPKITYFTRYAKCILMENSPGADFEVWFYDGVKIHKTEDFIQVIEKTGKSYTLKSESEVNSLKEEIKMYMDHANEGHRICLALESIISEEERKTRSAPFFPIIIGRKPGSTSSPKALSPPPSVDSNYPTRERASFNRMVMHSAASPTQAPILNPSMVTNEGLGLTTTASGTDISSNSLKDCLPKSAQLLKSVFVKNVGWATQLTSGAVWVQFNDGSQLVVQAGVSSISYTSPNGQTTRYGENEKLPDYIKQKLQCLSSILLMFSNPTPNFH

Sample 1
Target: Serine/threonine-protein kinase pim-1 (PIM1, Homo sapiens, UniProt P11309)
UniProt P11309, sequence (whole entry, looked up): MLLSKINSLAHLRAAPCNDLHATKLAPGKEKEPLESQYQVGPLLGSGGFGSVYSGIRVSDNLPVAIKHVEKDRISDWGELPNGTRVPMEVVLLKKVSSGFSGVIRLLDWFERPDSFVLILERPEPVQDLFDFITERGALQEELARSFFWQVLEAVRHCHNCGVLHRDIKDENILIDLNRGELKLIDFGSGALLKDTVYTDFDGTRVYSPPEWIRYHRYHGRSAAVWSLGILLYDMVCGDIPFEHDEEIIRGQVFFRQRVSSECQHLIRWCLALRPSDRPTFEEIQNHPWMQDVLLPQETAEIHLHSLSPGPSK
Read-out: enzyme activity
Mode: inhibitor
Tested at: 0.5 µM
Reference: control
`O=C(c1ccccc1)c1ccc(N2CCOCC2)cc1O` has a remaining activity of 101%.
For `CC(C)(C)c1nc2c3cc[nH]c(=O)c3c3cc(F)ccc3c2[nH]1`, the remaining activity was 38.6%.
`CCCCc1c(-c2ccc(O)cc2)[nH]c2nccnc12` gave a remaining activity of 83.8%.
For `CC(C)n1cnc2c(Nc3cccc(Cl)c3)nc(NCCO)nc21`, the remaining activity was 93.9%.
The remaining activity of `COc1cc2c(N3CCN(C(=O)Nc4ccc(OC(C)C)cc4)CC3)ncnc2cc1OCCCN1CCCCC1` is reported as 97.8%.
For `NC(=O)c1cccc(-c2cc(Nc3ccc(OC(F)(F)F)cc3)ncn2)c1`, the remaining activity was 101%.
The remaining activity of `NC(=O)c1ccc(-c2nc(-c3ccc4c(c3)OCCO4)c(-c3ccccn3)[nH]2)cc1` is reported as 97.1%.
`FC(F)(F)c1ccc(/C=C/c2nc(COc3ccc(CCCCn4ccnn4)cc3)co2)cc1` has a remaining activity of 102%.
For `N#CC(c1ccnc(NCCc2cccnc2)n1)c1nc2ccccc2s1` (centres unmarked), the remaining activity was 11.6%.
`O=Nc1c(-c2c(O)[nH]c3ccccc23)[nH]c2ccccc12` has a remaining activity of 85.2%.
`CNc1cc2c(Nc3cccc(Br)c3)ncnc2cn1` has a remaining activity of 66.2%.

Sample 2
Target: DNA polymerase theta, ATPase domain (POLQ, Homo sapiens, UniProt O75417)
UniProt O75417, sequence (whole entry, unmodified, looked up): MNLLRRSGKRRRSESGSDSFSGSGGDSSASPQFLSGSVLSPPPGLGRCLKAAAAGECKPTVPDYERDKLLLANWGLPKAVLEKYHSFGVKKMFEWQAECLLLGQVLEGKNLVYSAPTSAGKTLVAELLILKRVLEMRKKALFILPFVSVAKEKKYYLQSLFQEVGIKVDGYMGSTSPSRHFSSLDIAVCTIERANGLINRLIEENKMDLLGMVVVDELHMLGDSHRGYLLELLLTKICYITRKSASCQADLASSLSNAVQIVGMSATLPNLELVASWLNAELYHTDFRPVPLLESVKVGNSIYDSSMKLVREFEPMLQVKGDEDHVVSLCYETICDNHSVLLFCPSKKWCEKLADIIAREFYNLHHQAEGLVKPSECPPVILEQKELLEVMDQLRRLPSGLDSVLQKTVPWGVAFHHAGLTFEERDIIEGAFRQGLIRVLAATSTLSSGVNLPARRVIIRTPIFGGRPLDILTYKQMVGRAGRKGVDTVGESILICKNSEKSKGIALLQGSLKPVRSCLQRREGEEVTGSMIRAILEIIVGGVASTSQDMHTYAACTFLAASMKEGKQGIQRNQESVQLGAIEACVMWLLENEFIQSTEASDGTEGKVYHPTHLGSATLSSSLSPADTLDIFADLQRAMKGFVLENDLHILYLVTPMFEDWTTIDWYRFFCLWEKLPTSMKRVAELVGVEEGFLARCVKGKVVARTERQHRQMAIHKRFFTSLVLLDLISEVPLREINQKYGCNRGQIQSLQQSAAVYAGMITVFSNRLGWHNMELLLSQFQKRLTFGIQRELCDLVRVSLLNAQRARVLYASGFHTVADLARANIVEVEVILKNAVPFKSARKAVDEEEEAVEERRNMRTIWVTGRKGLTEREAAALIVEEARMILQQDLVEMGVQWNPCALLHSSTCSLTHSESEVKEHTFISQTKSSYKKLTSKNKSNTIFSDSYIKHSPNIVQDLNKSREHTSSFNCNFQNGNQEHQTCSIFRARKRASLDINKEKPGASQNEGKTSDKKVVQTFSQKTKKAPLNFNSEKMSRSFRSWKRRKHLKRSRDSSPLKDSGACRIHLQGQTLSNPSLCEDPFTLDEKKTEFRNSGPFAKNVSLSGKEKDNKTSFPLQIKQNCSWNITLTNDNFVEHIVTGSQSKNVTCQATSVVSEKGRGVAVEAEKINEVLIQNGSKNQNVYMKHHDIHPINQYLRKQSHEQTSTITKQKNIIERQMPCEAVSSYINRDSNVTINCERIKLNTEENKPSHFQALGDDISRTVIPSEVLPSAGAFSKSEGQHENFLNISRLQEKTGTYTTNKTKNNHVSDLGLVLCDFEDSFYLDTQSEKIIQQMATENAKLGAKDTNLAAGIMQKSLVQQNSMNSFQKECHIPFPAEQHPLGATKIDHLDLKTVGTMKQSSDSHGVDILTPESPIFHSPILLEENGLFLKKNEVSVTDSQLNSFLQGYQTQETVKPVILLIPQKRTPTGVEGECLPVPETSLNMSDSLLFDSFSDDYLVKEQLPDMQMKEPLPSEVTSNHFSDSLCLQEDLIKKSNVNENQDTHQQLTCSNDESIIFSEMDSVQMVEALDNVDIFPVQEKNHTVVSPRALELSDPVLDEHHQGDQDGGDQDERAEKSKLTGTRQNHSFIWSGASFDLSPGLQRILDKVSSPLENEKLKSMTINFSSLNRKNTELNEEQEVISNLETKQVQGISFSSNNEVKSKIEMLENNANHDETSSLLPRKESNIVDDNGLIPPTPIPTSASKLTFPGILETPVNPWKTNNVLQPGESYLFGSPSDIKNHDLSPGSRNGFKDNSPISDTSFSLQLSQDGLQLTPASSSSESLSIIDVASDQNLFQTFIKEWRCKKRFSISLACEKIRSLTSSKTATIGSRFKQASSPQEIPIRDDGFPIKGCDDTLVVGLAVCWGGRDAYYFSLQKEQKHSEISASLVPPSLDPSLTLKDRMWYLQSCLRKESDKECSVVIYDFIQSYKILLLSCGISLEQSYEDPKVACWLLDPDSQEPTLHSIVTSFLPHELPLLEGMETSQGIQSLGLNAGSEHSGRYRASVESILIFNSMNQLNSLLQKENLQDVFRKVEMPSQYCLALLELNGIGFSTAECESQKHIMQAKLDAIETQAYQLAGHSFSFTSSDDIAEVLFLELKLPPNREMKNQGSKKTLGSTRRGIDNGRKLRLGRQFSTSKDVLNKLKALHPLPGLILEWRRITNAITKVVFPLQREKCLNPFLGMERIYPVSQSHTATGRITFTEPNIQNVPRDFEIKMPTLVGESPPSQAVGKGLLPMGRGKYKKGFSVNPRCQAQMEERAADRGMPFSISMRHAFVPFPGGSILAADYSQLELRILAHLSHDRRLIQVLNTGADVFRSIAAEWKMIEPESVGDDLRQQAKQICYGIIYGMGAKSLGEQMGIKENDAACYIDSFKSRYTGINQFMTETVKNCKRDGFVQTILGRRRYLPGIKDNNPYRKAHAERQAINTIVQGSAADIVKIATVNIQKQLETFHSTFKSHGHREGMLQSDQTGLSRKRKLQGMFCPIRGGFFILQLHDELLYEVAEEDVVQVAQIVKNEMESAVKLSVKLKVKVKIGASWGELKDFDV
Read-out: enzyme activity
Mode: inhibitor
Tested at: 77 µM
Reference: untreated
The remaining activity of `CCCCc1nc2cc(/C=C/C(=O)NO)ccc2n1CCN(CC)CC` is reported as 97.8%.
With `C1CCC(C(CC2CCCCN2)C2CCCCC2)CC1` (centres unmarked) the remaining activity was 108%.
For `NC(=O)c1cccc(N)c1`, the remaining activity was 91.5% and 81.9%.
For `Clc1ccc(C(Cn2ccnc2)OCc2ccc(Sc3ccccc3)cc2)c(Cl)c1` (centres unmarked), the remaining activity was 99.4%.
With `CNC(=O)c1cc2c(cn1)[nH]c1ccccc12` the remaining activity was 107%.
For `COc1ccc2c3c([nH]c2c1)[C@H]1C[C@H]2[C@H](C[C@@H](O)[C@H](OC)[C@H]2C(=O)O)CN1CC3`, the remaining activity was 104%.
For `CN(C)CCCc1cc(C(=O)Nc2ccc(-c3ccncc3)cc2)ccc1O`, the remaining activity was 105%.
With `CC(C)N(CC[C@H](c1ccccc1)c1cc(CO)ccc1O)C(C)C` the remaining activity was 101%.
`Nc1c(CC(=O)O)cccc1C(=O)c1ccc(Br)cc1` has a remaining activity of 94.5%.
The remaining activity of `Cc1cnc(-c2cnc(NCCNc3ccc(C#N)cn3)nc2-c2ccc(Cl)cc2Cl)[nH]1` is reported as 99.6%.
`CC(C[N+](C)(C)C)OC(N)=O` (centres unmarked) has a remaining activity of 102%.
With `CCNC(=O)N1CCN(CCCC(c2ccc(F)cc2)c2ccc(F)cc2)CC1` the remaining activity was 97.5%.
With `CN[C@H](CC(=O)O)C(=O)O` the remaining activity was 101% and 78.2%.
With `CCC(=O)O[C@]1(C(=O)CCl)[C@@H](C)C[C@H]2[C@@H]3CCC4=CC(=O)C=C[C@]4(C)[C@@]3(F)[C@@H](O)C[C@@]21C` the remaining activity was 95.9% and 101%.
For `CN1CCN(C2CCN(C(=O)Nc3cc(Oc4ccc(NC(=O)C5(C(=O)Nc6ccc(F)cc6)CC5)c(F)c4)ccn3)CC2)CC1`, the remaining activity was 101%.
The remaining activity of `C[C@@H](NCCCc1cccc(C(F)(F)F)c1)c1cccc2ccccc12` is reported as 103%.
The remaining activity of `NCc1ccccc1CC(=O)N[C@@H]1C(=O)N2C(C(=O)O)=C(CSc3nnnn3CC(=O)O)CS[C@H]12` is reported as 97.4%.

Sample 3
Cell line: A-375
Tested at: 100 µM
Time: 36 h
For `CCN(CC)CCc1nc(-c2ccccc2)no1`, the viability was 24.8%.
For `N=C(N)c1ccc(/N=N/Nc2ccc(C(=N)N)cc2)cc1`, the viability was 3.99%.
`O=C(OC1C[C@@H]2CC3C[C@H](C1)N2CC3=O)c1c[nH]c2ccccc12` (some centres unmarked) gave a viability of 96.5%.
The viability of `COc1ccc(C(C)=O)c(O)c1` is reported as 94.5%.
`Nc1nc(Cl)nc2c1ncn2[C@@H]1O[C@H](CO)[C@@H](O)[C@@H]1F` has a viability of 21.3%.
`Cc1cc(=O)n(-c2ccccc2)n1C` has a viability of 115%.
`C[C@]12CC[C@H](O)CC1=CC[C@@H]1[C@@H]2CC[C@]2(C)C(c3cccnc3)=CC[C@@H]12` has a viability of 63.8%.
For `CN1CCC(=C2c3ccccc3CCn3c(C=O)cnc32)CC1`, the viability was 74.4%.
With `O=c1[nH]c(=O)n([C@H]2C[C@H](O)[C@@H](CO)O2)cc1F` the viability was 21.4%.
The viability of `COc1cc2nc(N3CCN(C(=O)c4ccco4)CC3)nc(N)c2cc1OC` is reported as 0.419%.
The viability of `CCN(CC)CCNC(C(=O)OCCC(C)C)c1ccccc1` (centres unmarked) is reported as 87%.
`O=c1cc[nH]c(=S)[nH]1` gave a viability of 107%.
`CC(=O)N(O)CCCCCNC(=O)CCC(=O)N(O)CCCCCNC(=O)CCC(=O)N(O)CCCCCN` has a viability of 40.9%.
For `COc1cc2nccc(Oc3ccc(NC(=O)C4(C(=O)Nc5ccc(F)cc5)CC4)cc3)c2cc1OC`, the viability was 14.9% and 19.7%.
`N#C/C(=C1/SC[C@@H](c2ccc(Cl)cc2Cl)S1)n1ccnc1` has a viability of 6.16%.

Sample 4
SMILES: O=C(O)c1cc(-c2ccc(C3CCNCC3)cc2)c2ccc(-c3ccc(C(F)(F)F)cc3)cc2c1
Tested at: 1 µM
The remaining binding was 100% (PDGFRA (Homo sapiens, UniProt P16234); cell-free assay, competition with immobilised ligand).
It gave 100% for remaining binding (RIOK1 (Homo sapiens, UniProt Q9BRS2); cell-free assay, competition with immobilised ligand).
It gave 100% for remaining binding (NEK2 (Homo sapiens, UniProt P51955); cell-free assay, competition with immobilised ligand).
The remaining binding was 100% (CHEK2 (Homo sapiens, UniProt O96017); cell-free assay, competition with immobilised ligand).
The remaining binding was 100% (STK32B (Homo sapiens, UniProt Q9NY57); cell-free assay, competition with immobilised ligand).
NTRK3 (Homo sapiens, UniProt Q16288); cell-free assay, competition with immobilised ligand — remaining binding: 100%.
It gave 100% for remaining binding (FRK (Homo sapiens, UniProt P42685); cell-free assay, competition with immobilised ligand).
The remaining binding was 100% (CDKL2 (Homo sapiens, UniProt Q92772); cell-free assay, competition with immobilised ligand).
For GRK1 (Homo sapiens, UniProt Q15835); cell-free assay, competition with immobilised ligand: remaining binding read 100%.
The remaining binding was 94% (CDKL3 (Homo sapiens, UniProt Q8IVW4); cell-free assay, competition with immobilised ligand).
The remaining binding was 100% (PIK3C2G (Homo sapiens, UniProt O75747); cell-free assay, competition with immobilised ligand).
For CDC42BPG (Homo sapiens, UniProt Q6DT37); competition binding: remaining binding read 100%.
The remaining binding was 100% (Insulin receptor (INSR, Homo sapiens, UniProt P06213); cell-free assay, competition with immobilised ligand).
The remaining binding was 100% (Tyrosine-protein kinase ABL1, non-phosphorylated (ABL1, Homo sapiens, UniProt P00519, F317I); binding, competition with immobilised ligand).
For PLK4 (Homo sapiens, UniProt O00444); cell-free assay, competition with immobilised ligand: remaining binding read 80%.
It gave 100% for remaining binding (MAK (Homo sapiens, UniProt P20794); cell-free assay, competition with immobilised ligand).
It gave 100% for remaining binding (KIT (Homo sapiens, UniProt P10721, V559D); cell-free assay, competition with immobilised ligand).
CDK18 (Homo sapiens, UniProt Q07002); cell-free assay, competition with immobilised ligand — remaining binding: 100%.
COQ8A (Homo sapiens, UniProt Q8NI60); cell-free assay, competition with immobilised ligand — remaining binding: 100%.

For quick reference, copied from above (sample 3):
`C[C@]12CC[C@H](O)CC1=CC[C@@H]1[C@@H]2CC[C@]2(C)C(c3cccnc3)=CC[C@@H]12` has a viability of 63.8%.
For `CN1CCC(=C2c3ccccc3CCn3c(C=O)cnc32)CC1`, the viability was 74.4%.
With `O=c1[nH]c(=O)n([C@H]2C[C@H](O)[C@@H](CO)O2)cc1F` the viability was 21.4%.
The viability of `COc1cc2nc(N3CCN(C(=O)c4ccco4)CC3)nc(N)c2cc1OC` is reported as 0.419%.
The viability of `CCN(CC)CCNC(C(=O)OCCC(C)C)c1ccccc1` (centres unmarked) is reported as 87%.
`O=c1cc[nH]c(=S)[nH]1` gave a viability of 107%.
`CC(=O)N(O)CCCCCNC(=O)CCC(=O)N(O)CCCCCNC(=O)CCC(=O)N(O)CCCCCN` has a viability of 40.9%.
For `COc1cc2nccc(Oc3ccc(NC(=O)C4(C(=O)Nc5ccc(F)cc5)CC4)cc3)c2cc1OC`, the viability was 14.9% and 19.7%.
